Assay results of several laboratories.
Lines come from different studies, so protocols differ. ± gives the spread as reported.
Technique: steady-state kinetics
B1: Paox H64A (Mus musculus, UniProt Q8C0L6); chain MAFPGPRVLVVGSGIAGLGAAQKLCSHRAAPHLRVLEATASAGGRIRSERCFGGVVELGAHWIAGPSQDNPVFQLAAEFGLLGEKELSEENQLVDTGGHVALPSMIWSSSGTSVSLELMTEMARLFYGLIERTREFLNESETPMASVGEFLKKEISQQVASWTEDDEDTRKRKLAILNTFFNIECCVSGTHSMDLVALAPFGEYTVLPGLDCILAGGYQGLTDRILASLPKDTVAFDKPVKTIHWNGSFQEAAFPGETFPVLVECEDGARLPAHHVIVTVPLGFLKEHQDTFFEPPLPAKKAEAIKKLGFGTNNKIFLEFEEPFWEPDCQFIQVVWEDTSPLQDTALSLQDTWFKKLIGFLVQPSFESSHVLCGFIAGLESEFMETLSDEEVLLSLTQVLRRVTGNPQLPAAKSVRRSQWHSAPYTRGSYSYVAVGSTGDDLDLMAQPLPEDGTGTQLQVLFAGEATHRTFYSTTHGALLSGWREADRLVSLWDSQVEQSRPRL
B2: protein P94L (Streptomyces coelicolor, UniProt P16544); chain MATQDSEVALVTGATSGIGLEIARRLGKEGLRVFVCARGEEGLRTTLKELREAGVEADGRTCDVRSVPEIEALVAAVVERYGPVDVLVNNAGRLGGGATAELADELWLDVVETNLTGVFRVTKQVLKAGGMLERGTGRIVNIASTGGKQGVVHAAPYSASKHGVVGFTKALGLELARTGITVNAVCPGFVETPMAASVREHYSDIWEVSTEEAFDRITARVPIGRYVQPSEVAEMVAYLIGPGAAAVTAQALNVCGGLGNY
B3: hpxO (Klebsiella pneumoniae, UniProt A6T923); chain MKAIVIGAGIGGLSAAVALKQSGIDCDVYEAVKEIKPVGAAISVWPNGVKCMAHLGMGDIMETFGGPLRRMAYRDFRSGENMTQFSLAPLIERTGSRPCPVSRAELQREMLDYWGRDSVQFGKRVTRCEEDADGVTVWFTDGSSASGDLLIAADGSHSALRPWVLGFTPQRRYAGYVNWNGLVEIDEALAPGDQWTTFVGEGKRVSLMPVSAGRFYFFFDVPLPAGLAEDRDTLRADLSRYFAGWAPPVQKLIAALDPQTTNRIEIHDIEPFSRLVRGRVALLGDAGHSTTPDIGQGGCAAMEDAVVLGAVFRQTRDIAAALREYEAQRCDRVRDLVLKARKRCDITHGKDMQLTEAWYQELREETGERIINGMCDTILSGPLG
B4: Tcur_2987 (Thermomonospora curvata, UniProt D1A807); chain ACSEERAAGARPSATQTTGTATEPFHGPHQAGIATPPQAHAVFLGLDLRKGTGRKELGRLMRLLTDDARRLTQGRPALADPEPDLAPLPSRLTFTFGFGPGLFKAAGLEKQRPEGLRPLPPFKVDRLEDRWSGGDLLVQICCDDPITLAHALRMTVKDARAFTRVRWVQRGFRRSPGVQSSGATQRNLMGQLDGTVNPVPGTADFDQAVWVQDGPEWLRGGTTLVLRRIRMELEKWDEADPAGKEFAVGRRLTSGAPLTGRHEHDEPDFDAVDSAGFPVIAENAHIRLAHVDSPRLRMLRRPYNYDEGLTADGRSDAGLLFAAYQADIDRQFIPVQRRLDEGGDLLNLWTTPIGSAVFAIPPGCDENGWIGQGLLG
B5: LdmS (Staphylococcus aureus, UniProt Q2FWC5); chain MTNNGNEPNLTLSDLYDKDVVYTSRPSYISNPWLKPDEHQSNFLTGRELLIANQLPVIVHEASATDKLHQLFQVIGKEVPNSIYTFNNQQSYENLIKQLAHKENKKIYFQYIHDETILNQQYYALDKTLFVALNNKARIPEWTNGKFLPKRKVVKIEQFENEIKNWEFPLVIKPGDDLPTAGGYGVMICYHDADLQKAITRIKEATAETNSLIIEQKIEEKANYCVQFAYSESLGIQYLGAATQLTDKYGFYNGNENTTNVPEHVIEAGRQIMENGVNQGFFGVAGFDLLVDEDDNVYAIDLNFRQNGSTSMLLLANELNSGYQKFYSYHSKGDNTHFFNTILKYVKEGSLYPLSYYDGDWYGEDKVKSRFGCIWHGDSKETVLENERAFLAELEHY
B6: protein (Trichoderma virens, UniProt G9MQB8); chain GQVPVSVNYHFSRKCNKECLFCFHTATTSHVEKPENAKRGLTLLKQAGMKKINFAGGEPFLYPKFLGEMIDFCKETLQLESVSIVTNGSLVKEQFLQKHGRNIDILAVSCDSFNEATNIKIGRGSGDNVQKLYEIGSWCQKYDIKFKLNTVVNKFNHLEDMNDHLNALQPFRWKCFQVLIVTGENDSDKTLRNAHSLTISDDEFDRFCERHSSQTCLVPEPNRLMAKSYLILDEYMRFLDRNGQQPSKSILEVGVQQALQAVFWDEEAFVERGGIYDWNKSSCSSDSKDLEW
B7: BshA Y95F (Bacillus subtilis, UniProt P42982); chain MRKLKIGITCYPSVGGSGIIATELGKQLAEKGHEIHFITSSIPFRLNTYHPNIHFHEVEVNQYAVFKYPPYDLTLASKIAEVAERENLDIIHAHFALPHAVCAYLAKQMLKRNIGIVTTLHGTDITVLGYDPSLKDLIRFAIESSDRVTAVSSALAAETYDLIKPEKKIETIYNFIDERVYLKKNTAAIKEKHGILPDEKVVIHVSNFRKVKRVQDVIRVFRNIAGKTKAKLLLVGDGPEKSTACELIRKYGLEDQVLMLGNQDRVEDLYSISDLKLLLSEKESFGLVLLEAMACGVPCIGTNIGGIPEVIKNNVSGFLVDVGDVTAATARAMSILEDEQLSNRFTKAAIEMLENEFSSKKIVSQYEQIYADLAEPE
B8: PRXC1A (Armoracia rusticana, UniProt P00433); chain QLTPTFYDNSCPNVSNIVRDTIVNELRSDPRIAASILRLHFHDCFVNGCDASILLDNTTSFRTEKDAFGNANSARGFPVIDRMKAAVESACPRTVSCADLLTIAAQQSVTLAGGPSWRVPLGRRDSLQAFLDLANANLPAPFFTLPQLKDSFRNVGLNRSSDLVALSGGHTFGKNQCRFIMDRLYNFSNTGLPDPTLNTTYLQTLRGLCPLNGNLSALVDFDLRTPTIFDNKYYVNLEEQKGLIQSDQELFSSPNATDTIPLVRSFANSTQTFFNAFVEAMDRMGNITPLTGTQGQIRLNCRVVNSNS
B9: carbamoyl phosphate synthetase large subunit M174E (Escherichia coli, UniProt P00968); chain PKRTDIKSILILGAGPIVIGQACEFDYSGAQACKALREEGYRVILVNSNPATIMTDPEMADATYIEPIHWEVVRKIIEKERPDAVLPTMGGQTALNCALELERQGVLEEFGVTMIGATADAIDKAEDRRRFDVAMKKIGLETARSGIAHTMEEALAVAADVGFPCIIRPSFTEGGSGGGIAYNREEFEEICARGLDLSPTKELLIDESLIGWKEYEMEVVRDKNDNCIIVCSIENFDAMGIHTGDSITVAPAQTLTDKEYQIMRNASMAVLREIGVETGGSNVQFAVNPKNGRLIVIEMNPRVSRSSALASKATGFPIAKVAAKLAVGYTLDELMNDITGGRTPASFEPSIDYVVTKIPRFNFEKFAGANDRLTTQMKSVGEVMAIGRTQQESLQKALRGLEVGATGFDPKVSLDDPEALTKIRRELKDAGADRIWYIADAFRAGLSVDGVFNLTNIDRWFLVQIEELVRLEEKVAEVGITGLNADFLRQLKRKGFADARLAKLAGVREAEIRKLRDQYDLHPVYKRVDTCAAEFATDTAYMYSTYEEECEANPSTDREKIMVLGGGPNRIGQGIEFDYCCVHASLALREDGYETIMVNCNPETVSTDYDTSDRLYFEPVTLEDVLEIVRIEKPKGVIVQYGGQTPLKLARALEAAGVPVIGTSPDAIDRAEDRERFQHAVERLKLKQPANATVTAIEMAVEKAKEIGYPLVVRPSYVLGGRAMEIVYDEADLRRYFQTAVSVSNDAPVLLDHFLDDAVEVDVDAICDGEMVLIGGIMEHIEQAGVHSGDSACSLPAYTLSQEIQDVMRQQVQKLAFELQVRGLMNVQFAVKNNEVYLIEVNPRAARTVPFVSKATGVPLAKVAARVMAGKSLAEQGVTKEVIPPYYSVKEVVLPFNKFPGVDPLLGPEMRSTGEVMGVGRTFAEAFAKAQLGSNSTMKKHGRALLSVREGDKERVVDLAAKLLKQGFELDATHGTAIVLGEAGINPRLVNKVHEGRPHIQDRIKNGEYTYIINTTSGRRAIEDSRVIRRSALQYKVHYDTTLNGGFATAMALNADATEKVISVQEMHAQIK
Sequence of UniProt Q9SKC5 (whole entry, looked up): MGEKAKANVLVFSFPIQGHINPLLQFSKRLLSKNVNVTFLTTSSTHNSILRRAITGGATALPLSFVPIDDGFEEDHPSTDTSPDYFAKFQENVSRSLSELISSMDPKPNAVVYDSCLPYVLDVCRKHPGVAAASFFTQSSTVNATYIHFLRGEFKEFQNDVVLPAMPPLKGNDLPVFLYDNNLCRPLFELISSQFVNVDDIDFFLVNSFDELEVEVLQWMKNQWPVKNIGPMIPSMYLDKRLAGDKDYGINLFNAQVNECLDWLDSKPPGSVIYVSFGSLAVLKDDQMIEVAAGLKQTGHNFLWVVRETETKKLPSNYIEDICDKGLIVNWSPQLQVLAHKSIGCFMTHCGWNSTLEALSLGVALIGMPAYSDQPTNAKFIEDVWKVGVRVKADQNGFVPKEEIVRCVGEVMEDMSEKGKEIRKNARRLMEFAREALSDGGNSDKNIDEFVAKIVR
Sequence of UniProt Q7L266 (whole entry, looked up): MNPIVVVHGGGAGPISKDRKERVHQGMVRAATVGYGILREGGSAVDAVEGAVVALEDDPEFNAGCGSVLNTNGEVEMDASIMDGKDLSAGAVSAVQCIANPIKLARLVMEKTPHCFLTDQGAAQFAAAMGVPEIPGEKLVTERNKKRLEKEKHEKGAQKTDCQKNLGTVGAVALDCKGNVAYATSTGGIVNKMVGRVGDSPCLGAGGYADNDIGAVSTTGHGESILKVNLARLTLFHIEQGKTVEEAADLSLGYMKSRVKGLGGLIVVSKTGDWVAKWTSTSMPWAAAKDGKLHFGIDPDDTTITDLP
Sequence of UniProt P36022 (whole entry, looked up): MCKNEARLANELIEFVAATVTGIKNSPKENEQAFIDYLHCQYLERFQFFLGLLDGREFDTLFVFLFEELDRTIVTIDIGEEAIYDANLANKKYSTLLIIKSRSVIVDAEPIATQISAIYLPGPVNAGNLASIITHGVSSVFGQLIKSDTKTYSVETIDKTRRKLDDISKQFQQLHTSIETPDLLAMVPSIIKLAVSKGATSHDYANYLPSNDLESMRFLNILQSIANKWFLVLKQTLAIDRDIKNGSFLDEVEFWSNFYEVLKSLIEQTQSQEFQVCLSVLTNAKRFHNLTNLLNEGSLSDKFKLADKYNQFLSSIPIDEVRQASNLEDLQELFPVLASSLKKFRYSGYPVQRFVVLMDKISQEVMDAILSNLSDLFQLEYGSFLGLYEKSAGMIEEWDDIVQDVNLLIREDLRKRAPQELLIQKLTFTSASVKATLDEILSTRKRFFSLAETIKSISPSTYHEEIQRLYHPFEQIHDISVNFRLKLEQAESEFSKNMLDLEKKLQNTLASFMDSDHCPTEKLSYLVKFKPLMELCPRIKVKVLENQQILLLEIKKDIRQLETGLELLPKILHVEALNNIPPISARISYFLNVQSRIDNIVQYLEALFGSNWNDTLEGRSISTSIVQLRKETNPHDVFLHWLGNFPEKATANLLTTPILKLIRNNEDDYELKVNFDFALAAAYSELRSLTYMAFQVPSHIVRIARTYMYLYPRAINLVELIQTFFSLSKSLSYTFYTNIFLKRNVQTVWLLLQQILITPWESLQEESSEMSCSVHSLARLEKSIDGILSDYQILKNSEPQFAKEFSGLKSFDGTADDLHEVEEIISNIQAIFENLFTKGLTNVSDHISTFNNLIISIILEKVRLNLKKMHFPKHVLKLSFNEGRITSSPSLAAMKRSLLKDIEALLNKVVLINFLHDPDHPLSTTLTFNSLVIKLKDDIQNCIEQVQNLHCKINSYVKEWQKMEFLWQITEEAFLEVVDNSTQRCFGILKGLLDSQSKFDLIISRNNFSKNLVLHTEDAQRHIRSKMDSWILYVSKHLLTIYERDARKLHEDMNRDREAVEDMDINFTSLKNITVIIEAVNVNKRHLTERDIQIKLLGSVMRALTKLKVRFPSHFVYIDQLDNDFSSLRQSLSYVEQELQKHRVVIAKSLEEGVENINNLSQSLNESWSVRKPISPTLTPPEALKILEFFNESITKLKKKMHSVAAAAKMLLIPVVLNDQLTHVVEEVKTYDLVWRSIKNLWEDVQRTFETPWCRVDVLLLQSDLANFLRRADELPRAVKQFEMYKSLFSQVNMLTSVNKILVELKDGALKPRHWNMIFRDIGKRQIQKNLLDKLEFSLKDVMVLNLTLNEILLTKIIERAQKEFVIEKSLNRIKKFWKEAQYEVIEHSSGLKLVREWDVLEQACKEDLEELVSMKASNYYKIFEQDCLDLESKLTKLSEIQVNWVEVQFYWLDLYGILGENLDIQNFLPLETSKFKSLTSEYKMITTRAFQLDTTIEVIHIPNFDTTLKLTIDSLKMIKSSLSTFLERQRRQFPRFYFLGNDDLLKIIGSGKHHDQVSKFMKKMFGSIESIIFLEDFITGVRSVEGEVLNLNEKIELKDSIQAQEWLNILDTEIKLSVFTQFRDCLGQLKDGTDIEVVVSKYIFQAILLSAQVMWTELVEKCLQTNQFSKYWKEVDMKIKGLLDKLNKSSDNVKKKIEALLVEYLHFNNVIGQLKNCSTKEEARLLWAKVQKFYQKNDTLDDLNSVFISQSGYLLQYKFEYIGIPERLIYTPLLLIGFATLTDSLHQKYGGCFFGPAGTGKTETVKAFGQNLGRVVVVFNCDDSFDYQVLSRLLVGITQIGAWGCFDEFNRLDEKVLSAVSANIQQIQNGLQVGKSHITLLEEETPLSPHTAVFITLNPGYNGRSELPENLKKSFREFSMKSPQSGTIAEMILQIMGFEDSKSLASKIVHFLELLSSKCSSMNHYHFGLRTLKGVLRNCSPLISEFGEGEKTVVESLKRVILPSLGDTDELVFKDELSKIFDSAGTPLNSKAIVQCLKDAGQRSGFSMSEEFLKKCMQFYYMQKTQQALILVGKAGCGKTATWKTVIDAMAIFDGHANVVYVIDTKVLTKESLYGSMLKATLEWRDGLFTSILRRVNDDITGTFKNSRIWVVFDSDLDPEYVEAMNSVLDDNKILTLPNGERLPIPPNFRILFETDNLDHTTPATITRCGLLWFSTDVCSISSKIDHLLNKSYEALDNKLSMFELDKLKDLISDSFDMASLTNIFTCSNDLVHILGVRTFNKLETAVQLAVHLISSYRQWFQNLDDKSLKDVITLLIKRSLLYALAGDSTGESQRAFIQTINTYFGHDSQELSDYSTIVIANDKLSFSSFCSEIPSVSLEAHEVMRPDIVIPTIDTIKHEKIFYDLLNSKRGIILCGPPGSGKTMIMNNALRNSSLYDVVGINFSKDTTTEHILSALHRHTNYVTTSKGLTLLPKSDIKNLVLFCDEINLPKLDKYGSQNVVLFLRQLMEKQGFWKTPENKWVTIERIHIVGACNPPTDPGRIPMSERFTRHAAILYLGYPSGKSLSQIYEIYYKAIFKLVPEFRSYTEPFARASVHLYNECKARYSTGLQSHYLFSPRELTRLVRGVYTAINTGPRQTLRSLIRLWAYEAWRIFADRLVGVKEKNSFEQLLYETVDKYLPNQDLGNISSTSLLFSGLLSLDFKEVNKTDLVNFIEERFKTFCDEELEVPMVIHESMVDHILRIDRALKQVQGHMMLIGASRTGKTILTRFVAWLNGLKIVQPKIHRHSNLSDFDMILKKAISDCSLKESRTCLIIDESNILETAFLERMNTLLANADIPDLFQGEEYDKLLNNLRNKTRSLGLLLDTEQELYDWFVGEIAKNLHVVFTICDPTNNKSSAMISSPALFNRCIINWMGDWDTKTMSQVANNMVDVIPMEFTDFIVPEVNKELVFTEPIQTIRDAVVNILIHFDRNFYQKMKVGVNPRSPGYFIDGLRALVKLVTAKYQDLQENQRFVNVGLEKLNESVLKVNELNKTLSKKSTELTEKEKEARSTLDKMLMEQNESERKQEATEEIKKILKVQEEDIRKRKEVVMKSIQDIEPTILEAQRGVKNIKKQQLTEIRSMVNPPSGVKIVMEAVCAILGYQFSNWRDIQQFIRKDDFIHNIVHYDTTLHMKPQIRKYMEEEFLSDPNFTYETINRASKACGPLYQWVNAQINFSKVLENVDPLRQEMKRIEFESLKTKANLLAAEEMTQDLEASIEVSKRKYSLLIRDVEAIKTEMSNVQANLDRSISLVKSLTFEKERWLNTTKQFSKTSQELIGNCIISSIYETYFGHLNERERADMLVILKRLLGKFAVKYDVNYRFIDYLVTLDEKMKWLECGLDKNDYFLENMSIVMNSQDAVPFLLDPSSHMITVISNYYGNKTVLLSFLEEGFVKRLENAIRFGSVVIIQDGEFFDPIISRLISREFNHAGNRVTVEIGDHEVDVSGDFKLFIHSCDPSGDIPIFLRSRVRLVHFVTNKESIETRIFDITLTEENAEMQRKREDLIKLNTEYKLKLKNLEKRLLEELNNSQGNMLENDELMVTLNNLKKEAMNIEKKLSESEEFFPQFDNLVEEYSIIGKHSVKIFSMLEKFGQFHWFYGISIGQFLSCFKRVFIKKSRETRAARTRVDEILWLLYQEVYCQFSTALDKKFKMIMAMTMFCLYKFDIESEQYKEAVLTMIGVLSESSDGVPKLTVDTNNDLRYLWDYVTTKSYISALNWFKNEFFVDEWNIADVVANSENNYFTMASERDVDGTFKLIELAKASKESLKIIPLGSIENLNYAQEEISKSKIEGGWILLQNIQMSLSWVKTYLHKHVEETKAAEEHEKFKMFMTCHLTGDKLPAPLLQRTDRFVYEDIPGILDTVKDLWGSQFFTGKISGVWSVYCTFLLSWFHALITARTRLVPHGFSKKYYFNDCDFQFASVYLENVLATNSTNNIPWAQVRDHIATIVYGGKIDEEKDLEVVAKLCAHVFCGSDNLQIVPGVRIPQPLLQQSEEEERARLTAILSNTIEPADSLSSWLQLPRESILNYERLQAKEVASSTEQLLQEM
Sequence of UniProt O31743 (whole entry, looked up): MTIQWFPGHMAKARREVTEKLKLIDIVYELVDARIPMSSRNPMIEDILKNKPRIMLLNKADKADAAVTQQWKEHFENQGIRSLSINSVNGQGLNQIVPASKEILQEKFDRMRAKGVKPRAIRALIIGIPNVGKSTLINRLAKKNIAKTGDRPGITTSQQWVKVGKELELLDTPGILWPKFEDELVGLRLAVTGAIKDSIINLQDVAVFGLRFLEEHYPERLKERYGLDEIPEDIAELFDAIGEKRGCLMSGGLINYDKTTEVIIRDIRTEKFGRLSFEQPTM

| Substance | substrate | pH | temperature | notes | with | kcat [s⁻¹] |
| --- | --- | --- | --- | --- | --- | --- |
| B1 (Paox H64A) | c1ccc(CNCCCCNCc2ccccc2)cc1 | pH 8.6 | 30 °C |  |  | 0.16 ± 0.01 |
| alanine aminopeptidase (Neisseria meningitidis, UniProt Q9JYV4) | NC(=O)Cc1cc(=O)oc2cc(NC(=O)[C@@H](N)Cc3ccc4ccccc4c3)ccc12 | pH 7.5 | 37 °C |  |  | 2.6 ± 0.27 |
| MSS116 (Saccharomyces cerevisiae, UniProt P15424) | Nc1ncnc2c1ncn2[C@@H]1O[C@H](COP(=O)(O)OP(=O)(O)OP(=O)(O)O)[C@@H](O)[C@H]1O | pH 7.5 | 37 °C |  | ATP | 0.075 ± 0.0183 |
| B2 (protein P94L) | O[C@H]1CCCc2ccccc21 | pH 7.4 |  | phosphate 400 mM, NADPH 250 µM printed | NADP+, reverse reaction | 0.24 ± 0.03 |
| B3 (hpxO) | NC(=O)C1=CN([C@@H]2O[C@H](COP(=O)(O)OP(=O)(O)OC[C@H]3O[C@@H](n4cnc5c(N)ncnc54)[C@H](O)[C@@H]3O)[C@@H](O)[C@H]2O)C=CC1 | pH 8 | 25 °C |  |  | 42 ± 2 |
| B4 (Tcur_2987) | Nc1c(S(=O)(=O)O)cc(Nc2cccc(S(=O)(=O)CCOS(=O)(=O)O)c2)c2c1C(=O)c1ccccc1C2=O | pH 3 |  | sigmoidal kinetics | H2O2 1 mM | 96 ± 2 |
| ASRGL1 (Homo sapiens, UniProt Q7L266) | COC(=O)[C@H](Cc1ccccc1)NC(=O)C[C@H](N)C(=O)O | pH 7.4 | 37 °C | NaCl 100 mM |  | 3.5 ± 0.1 |
| B5 (LdmS) | Nc1ncnc2c1ncn2[C@@H]1O[C@H](COP(=O)(O)OP(=O)(O)OP(=O)(O)O)[C@@H](O)[C@H]1O | pH 8 | 37 °C |  | L-Asp 50 mM, L-Met 10 mM, MgCl2 5 mM | 48 ± 1 |
| Ptb (Listeria monocytogenes, UniProt Q8Y7B7) | CCC(CC)C(=O)SCCNC(=O)CCNC(=O)[C@H](O)C(C)(C)COP(=O)(O)OP(=O)(O)OC[C@H]1O[C@@H](n2cnc3c(N)ncnc32)[C@H](O)[C@@H]1OP(=O)(O)O | pH 7.5 | 25 °C | apparent |  | 101 ± 11 |
| B6 (protein) | O=c1ccn([C@@H]2O[C@H](COP(=O)(O)OP(=O)(O)OP(=O)(O)O)[C@@H](O)[C@H]2O)c(=O)[nH]1 | pH 7.5 |  | KCl 150 mM | SAM 1 mM, dithionite 5 mM | 0.0075 ± 0.0005 |
| B7 (BshA Y95F) | CC(=O)N[C@H]1[C@@H](OP(=O)(O)OP(=O)(O)OC[C@H]2O[C@@H](n3ccc(=O)[nH]c3=O)[C@H](O)[C@@H]2O)O[C@H](CO)[C@@H](O)[C@@H]1O | pH 7.5 | 21 °C |  | malate 0–25 mM | 0.92 ± 0.03 |
| DYN1 (Saccharomyces cerevisiae, UniProt P36022) | Nc1ncnc2c1ncn2[C@@H]1O[C@H](CO[P@](=O)(O)O[P@](=O)(O)O[P@@](=O)(O)S)[C@@H](O)[C@H]1O | pH 7.2 |  |  |  | 4.52 ± 0.42 |
| B8 (PRXC1A) | CCn1c(=NN=c2sc3cc(S(=O)(=O)O)ccc3n2CC)sc2cc(S(=O)(=O)O)ccc21 | pH 7 | 25 °C | apparent |  | 160 ± 10 |
| B9 | Nc1ncnc2c1ncn2[C@@H]1O[C@H](COP(=O)(O)OP(=O)(O)OP(=O)(O)O)[C@@H](O)[C@H]1O | pH 7.6 |  | KCl 100 mM | glutamine 10 mM, ornithine 10 mM | 0.11 ± 0.01 |
| CoA persulfide reductase CDR-RHD (Enterococcus faecalis, UniProt A0ACD6TF65) | CC(C)(COP(=O)(O)OP(=O)(O)OC[C@H]1O[C@@H](n2cnc3c(N)ncnc32)[C@H](O)[C@@H]1OP(=O)(O)O)[C@@H](O)C(=O)NCCC(=O)NCCSS | pH 8 | 25 °C | NaCl 200 mM | FAD 100 nM, NADH 100 µM | 4.9 ± 0.4 |
| UGT74D1 (Arabidopsis thaliana, UniProt Q9SKC5) | O=C(O)Cc1c[nH]c2ccccc12 | pH 7.5 | 30 °C |  |  | 0.809 |
| RbgA (Bacillus subtilis, UniProt O31743) | Nc1nc2c(ncn2[C@@H]2O[C@H](COP(=O)(O)OP(=O)(O)OP(=O)(O)O)[C@@H](O)[C@H]2O)c(=O)[nH]1 | pH 7.5 | 37 °C | KCl 200 mM, free enzyme, apparent | GTP 0-1 mM | 0.00303 ± 8.33e-05 |

Repeated from above:
| Substance | substrate | pH | temperature | notes | with | kcat [s⁻¹] |
| --- | --- | --- | --- | --- | --- | --- |
| B8 (PRXC1A) | CCn1c(=NN=c2sc3cc(S(=O)(=O)O)ccc3n2CC)sc2cc(S(=O)(=O)O)ccc21 | pH 7 | 25 °C | apparent |  | 160 ± 10 |
| B9 | Nc1ncnc2c1ncn2[C@@H]1O[C@H](COP(=O)(O)OP(=O)(O)OP(=O)(O)O)[C@@H](O)[C@H]1O | pH 7.6 |  | KCl 100 mM | glutamine 10 mM, ornithine 10 mM | 0.11 ± 0.01 |
